Measurements pooled from the literature.
Each line is one published result; not all experiments were run side by side. ± marks the error that the study gave.
SPT15/TOA1/TOA2/SUA7 1-240; 1-286; 1-122; 1-345: SPT15/TOA1/TOA2/SUA7 1-240; 1-286; 1-122; 1-345 (Saccharomyces cerevisiae)
Fibroin-modulator-binding protein-1: Fibroin-modulator-binding protein-1 99-193 (Bombyx mori, UniProt Q5FBS0)
allR full length assumed: allR full length assumed (Escherichia coli, UniProt P0ACN4)
UniProt P0ACN4, sequence (whole entry, looked up): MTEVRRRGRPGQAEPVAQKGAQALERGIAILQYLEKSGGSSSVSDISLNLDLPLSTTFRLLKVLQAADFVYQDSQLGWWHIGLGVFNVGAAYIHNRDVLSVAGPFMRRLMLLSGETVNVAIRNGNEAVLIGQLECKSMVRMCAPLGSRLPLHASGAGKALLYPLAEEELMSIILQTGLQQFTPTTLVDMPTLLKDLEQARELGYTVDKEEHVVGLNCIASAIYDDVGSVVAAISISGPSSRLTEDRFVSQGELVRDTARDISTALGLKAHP
CGAS K394E: CGAS 161-522 K394E (Homo sapiens, UniProt Q8N884)
UniProt P32787, sequence (whole entry, unmodified, looked up): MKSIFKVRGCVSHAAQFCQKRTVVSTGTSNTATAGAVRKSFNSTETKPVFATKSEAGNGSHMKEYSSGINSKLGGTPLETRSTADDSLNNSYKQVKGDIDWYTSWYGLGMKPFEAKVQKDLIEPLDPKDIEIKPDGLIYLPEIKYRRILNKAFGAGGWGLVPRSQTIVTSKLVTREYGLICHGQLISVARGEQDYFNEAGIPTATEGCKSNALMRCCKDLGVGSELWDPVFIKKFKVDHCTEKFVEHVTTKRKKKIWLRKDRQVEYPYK
UniProt P33301, sequence (whole entry, looked up): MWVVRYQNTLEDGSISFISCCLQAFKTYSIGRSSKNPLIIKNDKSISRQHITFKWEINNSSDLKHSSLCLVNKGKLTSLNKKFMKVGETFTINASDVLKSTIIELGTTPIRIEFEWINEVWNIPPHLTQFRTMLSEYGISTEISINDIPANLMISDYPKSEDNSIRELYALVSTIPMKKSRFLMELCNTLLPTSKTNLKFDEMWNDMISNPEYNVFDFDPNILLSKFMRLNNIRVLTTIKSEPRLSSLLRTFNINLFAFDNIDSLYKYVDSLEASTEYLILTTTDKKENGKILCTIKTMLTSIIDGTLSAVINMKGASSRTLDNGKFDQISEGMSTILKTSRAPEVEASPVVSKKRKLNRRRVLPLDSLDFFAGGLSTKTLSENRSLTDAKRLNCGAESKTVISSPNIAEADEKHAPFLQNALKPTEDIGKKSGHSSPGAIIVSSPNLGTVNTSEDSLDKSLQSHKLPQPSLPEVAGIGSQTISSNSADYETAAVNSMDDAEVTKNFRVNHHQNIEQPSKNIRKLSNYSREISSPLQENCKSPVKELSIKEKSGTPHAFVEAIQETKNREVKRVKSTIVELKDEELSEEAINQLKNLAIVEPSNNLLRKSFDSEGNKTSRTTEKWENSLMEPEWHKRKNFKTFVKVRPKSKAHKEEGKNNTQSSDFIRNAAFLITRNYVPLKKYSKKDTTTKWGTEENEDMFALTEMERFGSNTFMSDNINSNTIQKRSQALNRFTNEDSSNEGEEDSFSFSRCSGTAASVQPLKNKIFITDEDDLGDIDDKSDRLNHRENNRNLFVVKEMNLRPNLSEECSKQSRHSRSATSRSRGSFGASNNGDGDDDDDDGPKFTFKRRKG
UniProt P18848, sequence (whole entry, unmodified, looked up): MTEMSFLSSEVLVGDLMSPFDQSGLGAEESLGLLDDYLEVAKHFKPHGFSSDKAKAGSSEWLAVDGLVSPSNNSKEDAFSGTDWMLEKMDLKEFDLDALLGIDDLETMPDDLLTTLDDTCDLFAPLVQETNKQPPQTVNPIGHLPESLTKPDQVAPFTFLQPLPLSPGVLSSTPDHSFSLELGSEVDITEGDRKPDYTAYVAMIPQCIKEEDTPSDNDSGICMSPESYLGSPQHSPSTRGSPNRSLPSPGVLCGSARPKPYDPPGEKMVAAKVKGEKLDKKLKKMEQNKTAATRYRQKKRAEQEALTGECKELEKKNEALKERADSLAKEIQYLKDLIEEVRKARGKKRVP
UniProt Q9Y253, sequence (1-355, looked up): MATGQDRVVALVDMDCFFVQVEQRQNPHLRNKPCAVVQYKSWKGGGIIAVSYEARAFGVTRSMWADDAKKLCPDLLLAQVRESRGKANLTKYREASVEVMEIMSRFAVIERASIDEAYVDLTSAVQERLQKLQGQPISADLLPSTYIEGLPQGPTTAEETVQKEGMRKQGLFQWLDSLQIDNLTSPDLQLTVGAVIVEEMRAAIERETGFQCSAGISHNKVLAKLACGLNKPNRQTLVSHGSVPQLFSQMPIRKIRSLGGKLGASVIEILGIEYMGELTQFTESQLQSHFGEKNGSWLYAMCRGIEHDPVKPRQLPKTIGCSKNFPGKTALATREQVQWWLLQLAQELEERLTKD
UniProt Q8N884, sequence (whole entry, unmodified, looked up): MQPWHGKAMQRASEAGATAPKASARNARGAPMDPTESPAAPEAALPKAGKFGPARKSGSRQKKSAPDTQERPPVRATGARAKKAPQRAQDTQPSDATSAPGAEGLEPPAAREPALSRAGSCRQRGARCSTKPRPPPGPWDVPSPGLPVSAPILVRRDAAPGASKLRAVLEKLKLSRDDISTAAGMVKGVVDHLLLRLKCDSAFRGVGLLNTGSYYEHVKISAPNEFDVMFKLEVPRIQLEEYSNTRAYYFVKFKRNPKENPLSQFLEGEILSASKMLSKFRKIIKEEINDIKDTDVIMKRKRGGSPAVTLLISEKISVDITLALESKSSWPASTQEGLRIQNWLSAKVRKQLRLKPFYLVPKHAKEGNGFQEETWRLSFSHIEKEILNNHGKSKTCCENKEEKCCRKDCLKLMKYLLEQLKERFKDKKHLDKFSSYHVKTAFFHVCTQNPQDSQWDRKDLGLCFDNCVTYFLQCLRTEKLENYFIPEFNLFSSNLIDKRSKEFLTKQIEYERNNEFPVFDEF
UniProt Q01844, sequence (whole entry, looked up): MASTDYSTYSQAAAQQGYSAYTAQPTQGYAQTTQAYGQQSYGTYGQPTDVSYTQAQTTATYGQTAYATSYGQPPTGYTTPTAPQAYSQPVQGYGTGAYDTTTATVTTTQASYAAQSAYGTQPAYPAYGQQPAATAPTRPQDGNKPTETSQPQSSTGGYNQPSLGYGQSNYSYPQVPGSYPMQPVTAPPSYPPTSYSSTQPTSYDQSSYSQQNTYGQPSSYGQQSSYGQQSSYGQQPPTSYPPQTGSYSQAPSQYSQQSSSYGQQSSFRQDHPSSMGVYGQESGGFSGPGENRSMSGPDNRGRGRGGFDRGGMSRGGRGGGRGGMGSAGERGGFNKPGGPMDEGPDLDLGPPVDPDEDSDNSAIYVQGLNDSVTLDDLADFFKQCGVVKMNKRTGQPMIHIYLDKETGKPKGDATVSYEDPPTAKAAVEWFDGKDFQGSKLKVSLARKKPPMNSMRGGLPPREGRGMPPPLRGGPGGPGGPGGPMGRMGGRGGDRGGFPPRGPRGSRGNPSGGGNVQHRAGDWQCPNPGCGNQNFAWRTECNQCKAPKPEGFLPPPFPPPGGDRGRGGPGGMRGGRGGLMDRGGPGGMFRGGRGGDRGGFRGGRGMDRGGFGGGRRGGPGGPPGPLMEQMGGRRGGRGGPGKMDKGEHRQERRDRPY
UniProt Q13308, sequence (whole entry, looked up): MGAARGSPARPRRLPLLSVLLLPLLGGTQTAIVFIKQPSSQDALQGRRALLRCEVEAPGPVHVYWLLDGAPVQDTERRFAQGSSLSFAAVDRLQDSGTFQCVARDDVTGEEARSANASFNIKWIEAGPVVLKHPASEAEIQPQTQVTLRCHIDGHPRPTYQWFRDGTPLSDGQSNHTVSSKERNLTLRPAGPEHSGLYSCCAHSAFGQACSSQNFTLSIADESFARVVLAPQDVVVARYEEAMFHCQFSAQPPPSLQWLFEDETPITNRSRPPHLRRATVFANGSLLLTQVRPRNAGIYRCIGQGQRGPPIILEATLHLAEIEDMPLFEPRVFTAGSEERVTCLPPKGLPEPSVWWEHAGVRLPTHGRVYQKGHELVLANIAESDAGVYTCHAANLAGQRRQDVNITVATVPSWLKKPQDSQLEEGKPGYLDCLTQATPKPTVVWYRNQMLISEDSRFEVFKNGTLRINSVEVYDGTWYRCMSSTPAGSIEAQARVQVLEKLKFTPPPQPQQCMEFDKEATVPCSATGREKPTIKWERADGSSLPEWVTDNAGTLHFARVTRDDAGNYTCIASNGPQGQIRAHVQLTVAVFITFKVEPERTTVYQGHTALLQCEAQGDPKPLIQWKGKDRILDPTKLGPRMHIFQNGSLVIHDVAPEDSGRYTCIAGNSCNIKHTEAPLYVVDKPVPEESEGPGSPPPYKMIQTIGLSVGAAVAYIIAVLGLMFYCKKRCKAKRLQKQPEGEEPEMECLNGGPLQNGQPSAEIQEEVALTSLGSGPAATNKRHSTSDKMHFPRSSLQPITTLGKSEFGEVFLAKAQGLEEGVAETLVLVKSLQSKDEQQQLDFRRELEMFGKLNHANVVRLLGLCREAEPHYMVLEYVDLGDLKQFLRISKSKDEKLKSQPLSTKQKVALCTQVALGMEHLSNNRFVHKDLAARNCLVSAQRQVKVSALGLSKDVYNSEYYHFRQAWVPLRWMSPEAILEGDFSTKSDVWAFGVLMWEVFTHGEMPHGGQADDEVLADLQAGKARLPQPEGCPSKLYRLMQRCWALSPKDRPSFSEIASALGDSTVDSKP
UniProt P19880, sequence (whole entry, looked up): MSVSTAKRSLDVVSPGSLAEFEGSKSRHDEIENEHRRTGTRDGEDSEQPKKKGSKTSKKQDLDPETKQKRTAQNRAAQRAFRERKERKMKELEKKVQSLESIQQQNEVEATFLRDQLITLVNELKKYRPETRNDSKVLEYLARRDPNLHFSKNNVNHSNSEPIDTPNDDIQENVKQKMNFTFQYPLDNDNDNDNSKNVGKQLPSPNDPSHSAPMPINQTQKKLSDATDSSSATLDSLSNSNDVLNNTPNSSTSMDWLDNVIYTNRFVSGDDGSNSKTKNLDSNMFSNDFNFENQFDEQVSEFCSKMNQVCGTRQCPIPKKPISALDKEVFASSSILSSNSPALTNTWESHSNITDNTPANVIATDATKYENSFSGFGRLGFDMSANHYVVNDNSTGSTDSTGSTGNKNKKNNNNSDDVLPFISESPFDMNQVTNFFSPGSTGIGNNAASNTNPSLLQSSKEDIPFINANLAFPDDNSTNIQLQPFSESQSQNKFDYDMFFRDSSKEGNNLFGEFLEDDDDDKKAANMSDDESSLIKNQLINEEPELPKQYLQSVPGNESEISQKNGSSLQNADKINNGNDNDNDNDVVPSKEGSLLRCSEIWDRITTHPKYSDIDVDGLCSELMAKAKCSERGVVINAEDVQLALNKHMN

Substance | tested on | test | system | setting | scale | quantity | value
DNA 1 GCTCAGTTCCCTGCTGGAAACGCCGCGGTCGTAGTAATATAGATAGGTCTGGATCAGATGTTGTTTCGGGGATTGTCAACAGCTGAGC / DNA 2 GCTCAGCTGTTGACAATCCCCGAAACAACAGAGACGAACTCTTCGCAGCAGCCGAGCTGACCGCGGCGTTTCCAGCAGGGAACTGAGC (DNA; 28 nt internal bubble) | EWSR1 1-656 (Homo sapiens, UniProt Q01844) | EMSA | folded DNA | – | – | Kd | 46 ± 15 nM
ATTTATATTATTTATTCATATTTATATTTA (ssDNA) | APOBEC3F full length assumed T312P (Homo sapiens, UniProt Q8IUX4) | EMSA | single-stranded DNA | – | – | Kd | 917 ± 217 nM
AGTTGGCAAGATGCCAATC (dsDNA) | NFIB full length assumed (Homo sapiens, UniProt O00712) | BLI | double-stranded DNA, one strand shown | added: Zn2+ 1 mM | – | Kd | 1.56 ± 0.04 nM
human LDL receptor | – | co-immunoprecipitation | human RBC membrane | unit not given, added: Band 3 peptide 1-56 bait | baseline: negative control | co-IP enrichment | 0
GGGAGAACUUCGACCAGAAGUUGCAUUCCUGCGCCACAUUACGCGAAACGAUCCCCGCCUAUGUGCGCAUACAUGGAUCCUC (ssRNA; 2'-fluoro pyrimidines) | integrin alphaV/beta3 31-992/27-718 (Homo sapiens) | SPR | RNA | added: MnCl2 1 mM | higher = more binding | relative binding | 90.8 RU
CTGAAGGGGGGGCTATAAAAGGGGATGGGGGCTCCTCAAGTCAATCGGTCC (dsDNA; 5'-amino-C6 primer) | SPT15/TOA1/TOA2/SUA7 1-240; 1-286; 1-122; 1-345 | array | double-stranded DNA, one strand shown | TBP:TFIIA:TFIIB ternary complex | – | Kd | 1.92 ± 0.36 nM
ACCCACCCACCC (dsDNA) | Fibroin-modulator-binding protein-1 | ITC | double-stranded DNA, one strand shown | – | – | Kd | 6040 nM
GTAAAGTAGGAACGGTATTAATAGAAATGATACTAAAGTACGAAATAATAAACTGGAATTT (dsDNA) | allR full length assumed | BLI | double-stranded DNA, one strand shown | – | – | Kd | 139 nM
TAAGACACGATGCGATAAAATCTG (dsDNA) | CGAS K394E | fluorescence anisotropy | double-stranded DNA, one strand shown | – | – | Kd | 397 ± 39 nM
GGGAGAACUUCGACCAGAAGUCAAUCCUGCACGUACUACGCGAAAACUGUCCCCCGCCUGUAUGUGCGCAUACAUGGAUCCUC (ssRNA; 2'-fluoro pyrimidines) | integrin alphaV/beta3 31-992/27-718 (Homo sapiens) | SPR | RNA | added: MnCl2 1 mM | higher = more binding | relative binding | 103 RU
VQLIMQLMPFG | HLA class I histocompatibility antigen, A alpha chain, allele A*24:02 (Homo sapiens, UniProt P04439) | conformational ELISA | peptide | concentration not given | baseline: positive control peptide, direction not given | binding score | 9.1%
GGACGGACGGAC (dsDNA) | Fibroin-modulator-binding protein-1 | ITC | double-stranded DNA, one strand shown | – | – | Kd | 11500 nM
AAAGAAAGAAAGAAAGAAAGAAAGAAAGAAAGAAAGAAAGAAAGAAAGAAAGAAAGAAAG (ssDNA) | CGAS 161-522 (Homo sapiens, UniProt Q8N884) | fluorescence anisotropy | single-stranded DNA | – | – | Kd | 549 ± 65 nM
GTGGACTAAATCTAGTTTTGGAAAAATATTCCAACTTTTGTATTGATGTTGTTCTCTTAAG (dsDNA) | allR full length assumed | BLI | double-stranded DNA, one strand shown | – | – | Kd | 8.69 nM
CACGCACGCACG (dsDNA) | Fibroin-modulator-binding protein-1 | ITC | double-stranded DNA, one strand shown | – | – | Kd | 7570 ± 904 nM
DNA 1 AAATCTTTTCTTTTTTCCATTCATTCATTAAATTTTCAATTCAATCGGTCC / DNA 2 GGACCGATTGACTTGAAAATTTAATGAATGAATGGAAAAAAGAAAAGATTT (dsDNA; 5'-amino-C6 primer) | SPT15/TOA1/TOA2/SUA7 1-240; 1-286; 1-122; 1-345 | array | double-stranded DNA | TBP:TFIIA:TFIIB ternary complex | – | Kd | 1.89 ± 0.16 nM
CCGGCCGGCCGG (dsDNA) | Fibroin-modulator-binding protein-1 | ITC | double-stranded DNA, one strand shown | – | – | Kd | 5380 ± 873 nM
ALLTWVTQV | Jurkat T cells expressing 1G4 TCR | NFAT-eGFP reporter, fluorescence microscopy | peptide | concentration not given, HLA-A*02:01 NY-ESO system | – | reporter activation | 24.7%
TTAATTAATTAA (dsDNA) | Fibroin-modulator-binding protein-1 | ITC | double-stranded DNA, one strand shown | – | – | Kd | 914 ± 66.5 nM
ATCTAACTGCTGCGCCGCCGGGAAAATACTGTACGGTTAGA (ssDNA) | PTK7 31-1070 (Homo sapiens, UniProt Q13308) | live-cell fluorescence correlation spectroscopy | – | in cells, not purified | – | Kd | 0.79 ± 0.15 nM
GUGUGAAUGAAU (ssRNA) | TARDBP 102-269 (Homo sapiens, UniProt Q13148) | BLI | RNA | – | – | Kd | 4 ± 0.9 nM
TCTTTTCTTGCTTAAATCTATAACTACAAAAAACATCAAGTCAATCGGTCC (dsDNA; 5'-amino-C6 primer) | SPT15/TOA1/TOA2/SUA7 1-240; 1-286; 1-122; 1-345 | array | double-stranded DNA, one strand shown | TBP:TFIIA:TFIIB ternary complex | – | Kd | 2.96 ± 0.45 nM

Substance | tested on | test | system | setting | scale | quantity | value
AGCAAGCAAGCA (dsDNA) | Fibroin-modulator-binding protein-1 | ITC | double-stranded DNA, one strand shown | – | – | Kd | 15800 nM
TCCTGAAGGGACGCCCTAGCTTGGTCCTATCGTCGTCAAGTCAATCGGTCC (dsDNA; 5'-amino-C6 primer) | SPT15/TOA1/TOA2/SUA7 1-240; 1-286; 1-122; 1-345 | array | double-stranded DNA, one strand shown | TBP:TFIIA:TFIIB ternary complex | – | Kd | 5.83 ± 2.46 nM
GTAAGTAAGTAA (dsDNA) | Fibroin-modulator-binding protein-1 | ITC | double-stranded DNA, one strand shown | – | – | Kd | 5110 ± 983 nM
TTGATAAGAGGTCATTTTTGCGGATGGCTTAGAGCTTAATTGCTGAATCTGGTGCTGTAGCTCAACATGTTTTAAATATGCAA (ssDNA) | MGM101 23-269 K133A (Saccharomyces cerevisiae, UniProt P32787) | fluorescence polarization | single-stranded DNA | – | – | Kd | 760 ± 160 nM
CTGAAGGGGGGGCTATAAAAGTTTATGGGGGCTCCTCAAGTCAATCGGTCC (dsDNA; 5'-amino-C6 primer) | SPT15/TOA1/TOA2/SUA7 1-240; 1-286; 1-122; 1-345 | array | double-stranded DNA, one strand shown | TBP:TFIIA:TFIIB ternary complex | – | Kd | 10.2 ± 7.16 nM
CGCACCTAATGACGCAATGACGGAATGACGTAATGACTCAATGACTGAATGACTTCTCCGGCGGTATGAC (dsDNA) | YAP1 full length assumed (Saccharomyces cerevisiae, UniProt P19880) | MITOMI | double-stranded DNA, one strand shown | not purified | – | Kd | 2000 ± 200 nM
GTGTTCGGACTCTGCCTCAAGACGGTAGTCAACGTGCTTG (dsDNA) | XRS2 1-325 (Saccharomyces cerevisiae, UniProt P33301) | EMSA | double-stranded DNA, one strand shown | Hill fit, apparent | – | Kd | 1800 ± 100 nM
PMESGICTIV | human MAGI1-2/6 PDZ construct (MBP fusion) | automated holdup | peptide, purified PDZ protein | concentration not given, unit not given | baseline: biotin control resin, higher = stronger binding | binding intensity | -0.00356
CACTCTGACGTCACACTC (dsDNA) | ATF4 276-351 C310A (Homo sapiens, UniProt P18848) | fluorescence polarization | double-stranded DNA, one strand shown | added: Mg2+ 10 mM | – | Kd | 110 ± 20 nM
TTTTTTTTTTTTTTTTTTTTTTTTTTTTTTTTTTTTTTTTTTTTTTTTTTTTTTTTTTTTTTTTTTTTTT (ssDNA) | RAD51 full length assumed Y253K (Saccharomyces cerevisiae, UniProt P25454) | fluorescence anisotropy | single-stranded DNA | apparent, Hill fit, added: ATP | – | Kd | 710 ± 70 nM
GTGGGTGGGTGG (dsDNA) | Fibroin-modulator-binding protein-1 | ITC | double-stranded DNA, one strand shown | – | – | Kd | 6880 nM
GACCGGAAGTGG (dsDNA) | ERF 22-140 C72S (Homo sapiens, UniProt P50548) | fluorescence anisotropy | double-stranded DNA, one strand shown | 50 nM DNA | – | Kd | 90 ± 16 nM
GAUAAAGAUCAUGACAUCGACUACAAGGACGACGACGACAAGGUUGUGGAGCUGAUCGAGAAGCACCACCACCACCACCACAAAGUGGUGAUGAACUAA (RNA; predicted 2-5 helices) | FXR1 1-539 (Homo sapiens) | fluorescence anisotropy | folded RNA | added: tRNA competitor | – | Kd | 157 ± 59 nM
TGACGTAGATTCGAATCGTTAGTGAGAGCTTAATTGCTGAATCTGGTG (dsDNA) | MGM101 23-269 (Saccharomyces cerevisiae, UniProt P32787) | fluorescence polarization | double-stranded DNA, one strand shown | – | – | Kd | 2200 ± 1500 nM
CTCGTTCAGGGGGCTGGTAATATTGGAAAAATTGCCCGTTCTTTAGCTGAAATCAAACTGA (dsDNA) | allR full length assumed | BLI | double-stranded DNA, one strand shown | – | – | Kd | 232 nM
ACAACAGACACACGAAGGTATAAAAATAAAATACATCAAGTCAATCGGTCC (dsDNA; 5'-amino-C6 primer) | SPT15/TOA1/TOA2/SUA7 1-240; 1-286; 1-122; 1-345 | array | double-stranded DNA, one strand shown | TBP:TFIIA:TFIIB ternary complex | – | Kd | 17.4 ± 15.5 nM
UAGAAGCGGAUUUAGCUCAGUUGGGAGAGCGCCAGACUGAAGAUCUGGAGGUCCUGUGUUCGAUCCACAGAAUUCGCA (tRNA (Saccharomyces cerevisiae)) | RNA-free ribonuclease P 1-192 C114S (Aquifex aeolicus, UniProt O67035) | fluorescence polarization | folded RNA | added: CaCl2 20 mM | – | Kd | 190 ± 60 nM
CACCATCCACTAC / ATGTAGTTGTAGTGGATGGTGGTAC (dsDNA; primer-template) | POLH core, residues 1-355 R356X (Homo sapiens, UniProt Q9Y253) | fluorescence polarization | – | added: MgCl2 5 mM | – | Kd | 3.2 ± 0.5 nM
UUCCUAUAUCUUCU (XNA; single strand, 2'-OMe, phosphorothioate backbone) | TARDBP 1-414 (Homo sapiens, UniProt Q13148) | fluorescence polarization | modified nucleic acid | apparent | – | Kd | < 20 nM
AAAGAAAGAAAGAAAGAAAGAAAGAAAGAAAGAAAGAAAGAAAGAAAGAAAGAAAGAAAG (ssRNA) | CGAS K394E | fluorescence anisotropy | RNA | – | – | Kd | 2290 ± 250 nM
ALLQWIAIL | Jurkat T cells expressing 1G4 TCR | NFAT-eGFP reporter, fluorescence microscopy | peptide | concentration not given, HLA-A*02:01 NY-ESO system | – | reporter activation | 0.0108%
GCATGGGCGGCATGAACCG (dsDNA; blunt; O6-POB-G; one strand modified C) | MGMT full length assumed C145A (Homo sapiens, UniProt P16455) | stopped-flow fluorescence | double-stranded DNA, one strand shown | 5 °C, apparent | – | Kd | 560 ± 40 nM

A few entries again:
Substance | tested on | test | system | setting | scale | quantity | value
AGTTGGCAAGATGCCAATC (dsDNA) | NFIB full length assumed (Homo sapiens, UniProt O00712) | BLI | double-stranded DNA, one strand shown | added: Zn2+ 1 mM | – | Kd | 1.56 ± 0.04 nM
human LDL receptor | – | co-immunoprecipitation | human RBC membrane | unit not given, added: Band 3 peptide 1-56 bait | baseline: negative control | co-IP enrichment | 0
GGGAGAACUUCGACCAGAAGUUGCAUUCCUGCGCCACAUUACGCGAAACGAUCCCCGCCUAUGUGCGCAUACAUGGAUCCUC (ssRNA; 2'-fluoro pyrimidines) | integrin alphaV/beta3 31-992/27-718 (Homo sapiens) | SPR | RNA | added: MnCl2 1 mM | higher = more binding | relative binding | 90.8 RU
CTGAAGGGGGGGCTATAAAAGGGGATGGGGGCTCCTCAAGTCAATCGGTCC (dsDNA; 5'-amino-C6 primer) | SPT15/TOA1/TOA2/SUA7 1-240; 1-286; 1-122; 1-345 | array | double-stranded DNA, one strand shown | TBP:TFIIA:TFIIB ternary complex | – | Kd | 1.92 ± 0.36 nM
ACCCACCCACCC (dsDNA) | Fibroin-modulator-binding protein-1 | ITC | double-stranded DNA, one strand shown | – | – | Kd | 6040 nM
GTAAAGTAGGAACGGTATTAATAGAAATGATACTAAAGTACGAAATAATAAACTGGAATTT (dsDNA) | allR full length assumed | BLI | double-stranded DNA, one strand shown | – | – | Kd | 139 nM
